Assay results of several laboratories.
Each line is one published result; not all experiments were run side by side. ± gives the spread as reported.

N=C(N)NCCC[C@@H](N)C(=O)N[C@@H](Cc1c[nH]c2ccccc12)C(=O)N[C@@H](CCC(N)=O)C(=O)N[C@@H](Cc1c[nH]c2ccccc12)C(=O)N[C@@H](CCCN)C(=O)N[C@@H](Cc1c[nH]c2ccccc12)C(=O)N[C@@H](CCC(N)=O)C(=O)N[C@@H](Cc1c[nH]c2ccccc12)C(=O)N[C@@H](CCCNC(=N)N)C(N)=O — IC50 (HT-29; cell growth or viability, MTT): > 138 µM
CNC(=O)C(NC(=O)c1ccccc1-c1ccc(C(F)(F)F)cc1)c1cccc(C(F)(F)F)c1 (centres unmarked) — IC50 (KHYG-1 with Ba/F3-MICA cells; NKG2D-mediated cell killing, inhibitor; 6 h): ~40 µM
O=C(Cc1ccc2ccccc2c1)N[C@H](Cc1ccc(OP(=O)(O)O)cc1)C(=O)N[C@H](Cc1ccccc1)C(=O)N[C@H](Cc1ccccc1)C(=O)N[C@H](Cc1ccc(OP(=O)(O)O)cc1)C(=O)O — IC50 (T98G; cell growth or viability, MTT): 360 µg/mL
COC(=O)CC[C@@H](NC(=O)[C@@H](Cc1ccc(OP(=O)(O)O)cc1)NC(=O)[C@@H](Cc1ccccc1)NC(=O)[C@@H](Cc1ccccc1)NC(=O)Cc1ccc2ccccc2c1)C(=O)OC — IC50 (OVSAHO; cell viability; day 1 (24 h)): > 20 µM
Cc1cc(C)c(N2CCN(c3c(C)cc(C)cc3C)C2=[Se])c(C)c1.[Cl][Au] — IC50 (human ovarian cancer cells; cell viability, MTT; 72 h): 2.3 ± 0.7 µM
O=C1CC2(C1)C(=O)[O][Pt]1([Cl])([O]C(=O)C(Cl)Cl)([NH][C@@H]3CCCC[C@H]3[NH]1)[O]C2=O — IC50 (NCI-H460; cell growth or viability, MTT): 1.94 µM
CCN1CC2(COC)CCC(OC)C34C5CC6C(OC)CC(O)(C(CC23)C14)C5C6OC(C)=O (centres unmarked) — IC50 (NCI-H460; cell growth or viability, MTT): 22.2 µM
Cc1cc(C)n(C(C(=O)OC(C)C)n2nc(C)cc2C)n1.F[P-](F)(F)(F)(F)F.[Cu+].c1ccc(P(c2ccccc2)c2ccccc2)cc1 — IC50 (BCPAP; cell growth or viability, MTT; 72 h): 8.8 µM
COCC12CCC(OC)C34C5CC6(O)C(O)C5C(O)(C(O)C6OC)C(C(OC)C13)C4N(C)C2 (centres unmarked) — IC50 (HBE; cell growth or viability, MTT): 24.8 µM
C[C@H]1C(OCCCCCCCCCC[P+](c2ccccc2)(c2ccccc2)c2ccccc2)O[C@@H]2O[C@@]3(C)CCC4[C@H](C)CCC1[C@]42OO3 (some centres unmarked) — IC50 (HUVEC; cell viability, MTT; 72 h): 0.33 ± 0.0209 µM
COc1cc(C=CC(=O)CC(=O)C=Cc2ccc(OC(=O)CCC(=O)OC3OC4OC5(C)CCC6C(C)CCC(C3C)C46OO5)c(OC)c2)ccc1OC(=O)CCC(=O)OC1OC2OC3(C)CCC4C(C)CCC(C1C)C24OO3 (centres unmarked) — IC50 (C3PV; cell growth or viability, MTT; 24 h): > 300 µM
C[C@H]1C(OCCCCCC[P+](c2ccccc2)(c2ccccc2)c2ccccc2)O[C@@H]2O[C@@]3(C)CCC4[C@H](C)CCC1[C@]42OO3 (some centres unmarked) — IC50 (HUVEC; cell viability, MTT; 72 h): 0.322 ± 0.0102 µM
Cc1cc(C)c(-n2c[n+](-c3c(C)cc(C)cc3C)c3c2-c2cccc4cccc-3c24)c(C)c1.[Cl][Pd-]([Cl])[CH2]C=Cc1ccccc1 — IC50 (2008; cell growth, MTT; 72 h): 4 ± 1 µM
C[C@H]1[C@H](OC(=O)CCC(=O)O[C@H]2CO[C@H]3[C@@H]2OC[C@H]3O[N+](=O)[O-])O[C@@H]2O[C@@]3(C)CC[C@H]4[C@H](C)CC[C@@H]1[C@@]24OO3 — IC50 (L02; cell growth or viability, CCK-8; 72 h): 3.08 µM
CC(C)c1cccc(C(C)C)c1-n1c[n+](-c2c(C(C)C)cccc2C(C)C)c2c1-c1cccc3cccc-2c13.[Cl][Pd-]([Cl])[CH2]C=Cc1ccccc1 — IC50 (NTERA2; cell growth or viability; 72 h, 3D culture): 48 µM
O=S(=O)([O][Pt]([O]S(=O)(=O)C(F)(F)F)([PH](c1ccccc1)(c1ccccc1)c1ccc[cH-]1)[PH](c1ccccc1)(c1ccccc1)c1ccc[cH-]1)C(F)(F)F.[Fe+2] — IC50 (KB; cell growth, MTT; 24 h): 76.6 µM
CCN1CC2(COC)CCC(OC)C34C5CC6C(OC)CC(O)(C(CC23)C14)C5C6OC(=O)c1ccccc1 (centres unmarked) — IC50 (NCI-H460; cell growth or viability, MTT): 23.4 µM
O=C1C=CC(=O)c2c(O)ccc(O)c21 — IC50 (HuCC-A1; cell growth or viability, MTT): 1.55 µM
O=C(c1ccccc1O)c1[nH]c(Cl)c(Cl)c1-n1c(C(=O)c2ccccc2O)cc(Cl)c1Cl — IC50 (MRC5; cell growth or viability, resazurin; 24 h): 1.7 µg/mL
[Cl][Au-][P+](c1ccccc1)(c1ccccc1)c1cc[cH-]c1.[Cl][Au-][P+](c1ccccc1)(c1ccccc1)c1cc[cH-]c1.[Cl][Ti+2][Cl] — IC50 (A498; cell growth or viability, XTT): 16.3 µM
COCC12CN(C)C3C4C(OC)C1C3(C(OC)CC2O)C1CC2(O)C(OC)C(O)C4(OC(C)=O)C1C2OC(=O)c1ccccc1 (centres unmarked) — IC50 (HBE; cell growth or viability, MTT): 26.3 µM
COc1ccnc(-c2cc(OC)ccn2)c1.[C-]#[O+].[C-]#[O+].[C-]#[O+].[Re+] — IC50 (H460; cell viability): 9 ± 5 µM
OC[C@H]1[C@@H](O)[C@@H](O)CN1Cc1ccc(I)cc1 — IC50 (CEM-DNR daunorubicin resistant; MTS; 72 h): 87 ± 11 µM
CCCCN1CCNC1=[S+][Ag-3]([O][N+](=O)[O-])([P+](c1ccccc1)(c1ccccc1)c1ccccc1)[P+](c1ccccc1)(c1ccccc1)c1ccccc1 — IC50 (MG-63; MTT; 24 h): 9.21 µM
F[P-](F)(F)(F)(F)F.OCP(CO)CO.OCP(CO)CO.OCP(CO)CO.OCP(CO)CO.[Cu+] — IC50 (LoVo; cell growth or viability, MTT; 48 h): 1.37 µM
CC(C)[C@@H]1NC(=O)[C@H](C)OC(=O)[C@@H](C(C)C)NC(=O)[C@@H](C(C)C)OC(=O)[C@H](C(C)C)NC(=O)[C@H](C)OC(=O)[C@@H](C(C)C)NC(=O)[C@@H](C(C)C)OC(=O)[C@H](C(C)C)NC(=O)[C@H](C)OC(=O)[C@@H](C(C)C)NC(=O)[C@H](C)OC1=O — IC50 (human Astrocyte; cell growth or viability): 3.5 µM
N=C(N)NCCC[C@H](NC(=O)[C@H](CCCNC(=N)N)NC(=O)[C@@H]1CCCN1C(=O)[C@H](CCCNC(=N)N)NC(=O)[C@H](CCCNC(=N)N)NC(=O)[C@H](CCCNC(=N)N)NC(=O)[C@H](Cc1c[nH]c2ccccc12)NC(=O)[C@H](CCCNC(=N)N)NC(=O)[C@H](CCCNC(=N)N)NC(=O)[C@H](CCCNC(=N)N)NC(=O)[C@H](CCCNC(=N)N)NC(=O)[C@H](CCCNC(=N)N)NC(=O)[C@H](Cc1c[nH]c2ccccc12)NC(=O)[C@H](CCCNC(=N)N)NC(=O)[C@H](CCCNC(=N)N)NC(=O)[C@H](Cc1ccc(O)cc1)NC(=O)[C@H](CCCNC(=N)N)NC(=O)[C@H](CCCNC(=N)N)NC(=O)[C@H](CCCNC(=N)N)NC(=O)[C@@H](N)Cc1c[nH]c2ccccc12)C(N)=O — IC50 (BT-474; cell viability, CellTiter-Blue; 24 h, serum-free medium): 15.7 ± 1.5 µM
C[C@H]1C(OCCCCCCCCCCCC[P+](c2ccccc2)(c2ccccc2)c2ccccc2)O[C@@H]2O[C@@]3(C)CCC4[C@H](C)CCC1[C@]42OO3 (some centres unmarked) — IC50 (HUVEC; cell viability, MTT; 72 h): 0.0761 ± 0.0073 µM
CC(=O)N[C@@H](Cc1c[nH]cn1)C(=O)N[C@@H](CCCNC(=N)N)C(=O)N[C@@H](CCCNC(=N)N)C(=O)N[C@@H](CCCNC(=N)N)C(=O)N[C@@H](CCCNC(=N)N)C(=O)N[C@@H](CCCNC(=N)N)C(=O)N[C@@H](CCCNC(=N)N)C(=O)N[C@@H](CCCNC(=N)N)C(=O)N[C@@H](CCCNC(=N)N)C(=O)N[C@@H](Cc1c[nH]cn1)C(N)=O — IC50 (H22; CCK-8; 24 h): 6.2 ± 0.19 µM
CC(C)C[C@H](NC(=O)[C@@H](CCCNC(=N)N)NC(=O)[C@H](Cc1c[nH]cn1)NC(=O)[C@H](CO)NC(=O)[C@H](Cc1c[nH]c2ccccc12)NC(=O)[C@H](Cc1c[nH]cn1)NC(=O)[C@@H]1CCC(=O)N1)C(=O)N[C@@H](CCCNC(=N)N)C(=O)N1CCC[C@H]1C(=O)NCC(N)=O — IC50 (WPE-1-NB26-3; cell growth, inhibitor, sulforhodamine B staining; four days): 0.0209 ± 0.0118 µM
CC1=CC(C)=[N+]2C1=Cc1ccc(CCC(=O)NCC3C[NH][Pt]([Cl])([Cl])[NH]3)n1[B-]2(F)F (centres unmarked) — IC50 (KB-3-1; cell viability, CellTiter-Glo; 72 h, DMF solvent): 35.7 ± 1.5 µM
[Cl][Au].[Se]=c1n(C2CCCCC2)ccn1C1CCCCC1 — IC50 (LoVo; cell growth or viability, MTT; 72 h): 2.6 µM
CCC(=O)C(NC(=O)c1ccccc1-c1ccc(C(F)(F)F)cc1)c1cccc(C(F)(F)F)c1 (centres unmarked) — IC50 (KHYG-1 with Ba/F3-MICA cells; NKG2D-mediated cell killing, inhibitor; 6 h): > 40 µM
C[C@H]1C(OCCCCCCC[P+](c2ccccc2)(c2ccccc2)c2ccccc2)O[C@@H]2O[C@@]3(C)CCC4[C@H](C)CCC1[C@]42OO3 (some centres unmarked) — IC50 (HUVEC; cell viability, MTT; 72 h): 0.162 ± 0.0041 µM
COc1cc(OC)cc(C2=C3c4ccccc4C(c4ccc(NC(=S)NCCOCCOCCOCCC(=O)N[C@@H](CC(C)C)C(=O)N[C@@H](C)C(=O)N[C@@H](CCCNC(=N)N)C(=O)N[C@@H](CC(C)C)C(=O)N[C@@H](CC(C)C)C(=O)N[C@H](C(N)=O)[C@@H](C)O)cc4)=[N+]3[B-](F)(F)n3c2c2ccccc2c3-c2ccc(NC(=S)NCCNC(=O)CCCC[C@@H]3SC[C@@H]4NC(=O)N[C@@H]43)cc2)c1 — IC50 (HT-29; dark toxicity): 159 µM

Repeated from above:
COc1cc(C=CC(=O)CC(=O)C=Cc2ccc(OC(=O)CCC(=O)OC3OC4OC5(C)CCC6C(C)CCC(C3C)C46OO5)c(OC)c2)ccc1OC(=O)CCC(=O)OC1OC2OC3(C)CCC4C(C)CCC(C1C)C24OO3 (centres unmarked) — IC50 (C3PV; cell growth or viability, MTT; 24 h): > 300 µM
C[C@H]1C(OCCCCCC[P+](c2ccccc2)(c2ccccc2)c2ccccc2)O[C@@H]2O[C@@]3(C)CCC4[C@H](C)CCC1[C@]42OO3 (some centres unmarked) — IC50 (HUVEC; cell viability, MTT; 72 h): 0.322 ± 0.0102 µM
Cc1cc(C)c(-n2c[n+](-c3c(C)cc(C)cc3C)c3c2-c2cccc4cccc-3c24)c(C)c1.[Cl][Pd-]([Cl])[CH2]C=Cc1ccccc1 — IC50 (2008; cell growth, MTT; 72 h): 4 ± 1 µM
C[C@H]1[C@H](OC(=O)CCC(=O)O[C@H]2CO[C@H]3[C@@H]2OC[C@H]3O[N+](=O)[O-])O[C@@H]2O[C@@]3(C)CC[C@H]4[C@H](C)CC[C@@H]1[C@@]24OO3 — IC50 (L02; cell growth or viability, CCK-8; 72 h): 3.08 µM
CC(C)c1cccc(C(C)C)c1-n1c[n+](-c2c(C(C)C)cccc2C(C)C)c2c1-c1cccc3cccc-2c13.[Cl][Pd-]([Cl])[CH2]C=Cc1ccccc1 — IC50 (NTERA2; cell growth or viability; 72 h, 3D culture): 48 µM
